Measurements from different studies.
Each numbered part is a random draw from the data of one study; scales do not carry over between parts. “And” joins repeats or separate records; there may be more than shown.
UniProt P11802, sequence (whole entry, looked up): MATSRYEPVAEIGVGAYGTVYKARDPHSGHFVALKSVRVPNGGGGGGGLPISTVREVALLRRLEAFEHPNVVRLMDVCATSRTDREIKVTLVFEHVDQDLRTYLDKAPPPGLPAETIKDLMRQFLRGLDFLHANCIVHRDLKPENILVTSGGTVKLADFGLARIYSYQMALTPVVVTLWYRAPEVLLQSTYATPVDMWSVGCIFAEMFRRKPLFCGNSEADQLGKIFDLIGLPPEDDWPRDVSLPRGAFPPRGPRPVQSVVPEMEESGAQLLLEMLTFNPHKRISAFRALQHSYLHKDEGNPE
UniProt P49759, sequence (whole entry, looked up): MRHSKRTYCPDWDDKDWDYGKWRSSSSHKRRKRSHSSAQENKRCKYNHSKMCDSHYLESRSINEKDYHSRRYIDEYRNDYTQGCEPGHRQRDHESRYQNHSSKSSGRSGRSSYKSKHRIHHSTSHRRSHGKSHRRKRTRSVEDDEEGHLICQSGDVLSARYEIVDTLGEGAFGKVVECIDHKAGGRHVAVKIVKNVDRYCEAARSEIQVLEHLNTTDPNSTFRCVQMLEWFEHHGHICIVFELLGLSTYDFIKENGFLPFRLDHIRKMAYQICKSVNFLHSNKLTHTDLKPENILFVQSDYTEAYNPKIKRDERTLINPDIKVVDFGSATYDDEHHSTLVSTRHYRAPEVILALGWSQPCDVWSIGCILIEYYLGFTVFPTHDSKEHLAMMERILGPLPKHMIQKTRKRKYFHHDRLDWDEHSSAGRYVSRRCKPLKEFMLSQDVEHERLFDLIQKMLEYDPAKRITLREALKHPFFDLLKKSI
UniProt Q13882, sequence (whole entry, looked up): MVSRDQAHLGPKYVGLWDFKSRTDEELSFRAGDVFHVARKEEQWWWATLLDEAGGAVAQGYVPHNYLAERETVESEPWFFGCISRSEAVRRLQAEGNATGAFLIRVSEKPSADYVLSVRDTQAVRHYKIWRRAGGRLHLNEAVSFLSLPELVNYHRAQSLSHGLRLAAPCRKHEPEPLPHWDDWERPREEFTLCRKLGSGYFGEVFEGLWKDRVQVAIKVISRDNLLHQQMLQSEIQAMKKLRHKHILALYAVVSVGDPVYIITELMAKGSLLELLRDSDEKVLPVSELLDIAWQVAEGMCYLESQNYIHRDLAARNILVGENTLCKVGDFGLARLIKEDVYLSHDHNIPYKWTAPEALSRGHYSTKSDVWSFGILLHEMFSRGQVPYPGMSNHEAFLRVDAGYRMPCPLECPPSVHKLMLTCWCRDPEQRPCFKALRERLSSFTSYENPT
UniProt O43353, sequence (whole entry, looked up): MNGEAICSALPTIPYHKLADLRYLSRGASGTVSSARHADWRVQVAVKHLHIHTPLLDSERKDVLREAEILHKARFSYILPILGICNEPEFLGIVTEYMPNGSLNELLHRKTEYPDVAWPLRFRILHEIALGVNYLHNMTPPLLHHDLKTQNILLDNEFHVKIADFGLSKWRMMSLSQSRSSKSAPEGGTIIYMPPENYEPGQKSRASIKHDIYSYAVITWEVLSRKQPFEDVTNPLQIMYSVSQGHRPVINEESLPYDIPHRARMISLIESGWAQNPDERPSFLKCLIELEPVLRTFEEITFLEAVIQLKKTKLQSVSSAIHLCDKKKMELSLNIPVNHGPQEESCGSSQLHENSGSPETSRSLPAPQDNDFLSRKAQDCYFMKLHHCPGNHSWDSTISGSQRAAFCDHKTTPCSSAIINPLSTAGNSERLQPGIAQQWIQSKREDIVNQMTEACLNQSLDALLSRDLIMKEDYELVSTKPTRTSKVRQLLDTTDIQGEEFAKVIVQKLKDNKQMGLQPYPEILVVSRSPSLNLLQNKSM
UniProt P49674, sequence (whole entry, looked up): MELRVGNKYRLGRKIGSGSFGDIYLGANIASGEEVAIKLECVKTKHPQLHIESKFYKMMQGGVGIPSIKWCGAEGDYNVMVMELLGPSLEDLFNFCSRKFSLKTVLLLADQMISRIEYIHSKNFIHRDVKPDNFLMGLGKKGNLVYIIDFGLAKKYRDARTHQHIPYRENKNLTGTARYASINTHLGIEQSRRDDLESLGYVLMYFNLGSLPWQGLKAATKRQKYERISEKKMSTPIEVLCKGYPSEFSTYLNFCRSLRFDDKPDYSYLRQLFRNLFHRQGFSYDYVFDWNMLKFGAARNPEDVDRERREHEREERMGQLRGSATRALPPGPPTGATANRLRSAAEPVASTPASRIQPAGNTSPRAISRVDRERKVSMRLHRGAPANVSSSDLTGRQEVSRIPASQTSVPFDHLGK
UniProt Q9BX84, sequence (whole entry, looked up): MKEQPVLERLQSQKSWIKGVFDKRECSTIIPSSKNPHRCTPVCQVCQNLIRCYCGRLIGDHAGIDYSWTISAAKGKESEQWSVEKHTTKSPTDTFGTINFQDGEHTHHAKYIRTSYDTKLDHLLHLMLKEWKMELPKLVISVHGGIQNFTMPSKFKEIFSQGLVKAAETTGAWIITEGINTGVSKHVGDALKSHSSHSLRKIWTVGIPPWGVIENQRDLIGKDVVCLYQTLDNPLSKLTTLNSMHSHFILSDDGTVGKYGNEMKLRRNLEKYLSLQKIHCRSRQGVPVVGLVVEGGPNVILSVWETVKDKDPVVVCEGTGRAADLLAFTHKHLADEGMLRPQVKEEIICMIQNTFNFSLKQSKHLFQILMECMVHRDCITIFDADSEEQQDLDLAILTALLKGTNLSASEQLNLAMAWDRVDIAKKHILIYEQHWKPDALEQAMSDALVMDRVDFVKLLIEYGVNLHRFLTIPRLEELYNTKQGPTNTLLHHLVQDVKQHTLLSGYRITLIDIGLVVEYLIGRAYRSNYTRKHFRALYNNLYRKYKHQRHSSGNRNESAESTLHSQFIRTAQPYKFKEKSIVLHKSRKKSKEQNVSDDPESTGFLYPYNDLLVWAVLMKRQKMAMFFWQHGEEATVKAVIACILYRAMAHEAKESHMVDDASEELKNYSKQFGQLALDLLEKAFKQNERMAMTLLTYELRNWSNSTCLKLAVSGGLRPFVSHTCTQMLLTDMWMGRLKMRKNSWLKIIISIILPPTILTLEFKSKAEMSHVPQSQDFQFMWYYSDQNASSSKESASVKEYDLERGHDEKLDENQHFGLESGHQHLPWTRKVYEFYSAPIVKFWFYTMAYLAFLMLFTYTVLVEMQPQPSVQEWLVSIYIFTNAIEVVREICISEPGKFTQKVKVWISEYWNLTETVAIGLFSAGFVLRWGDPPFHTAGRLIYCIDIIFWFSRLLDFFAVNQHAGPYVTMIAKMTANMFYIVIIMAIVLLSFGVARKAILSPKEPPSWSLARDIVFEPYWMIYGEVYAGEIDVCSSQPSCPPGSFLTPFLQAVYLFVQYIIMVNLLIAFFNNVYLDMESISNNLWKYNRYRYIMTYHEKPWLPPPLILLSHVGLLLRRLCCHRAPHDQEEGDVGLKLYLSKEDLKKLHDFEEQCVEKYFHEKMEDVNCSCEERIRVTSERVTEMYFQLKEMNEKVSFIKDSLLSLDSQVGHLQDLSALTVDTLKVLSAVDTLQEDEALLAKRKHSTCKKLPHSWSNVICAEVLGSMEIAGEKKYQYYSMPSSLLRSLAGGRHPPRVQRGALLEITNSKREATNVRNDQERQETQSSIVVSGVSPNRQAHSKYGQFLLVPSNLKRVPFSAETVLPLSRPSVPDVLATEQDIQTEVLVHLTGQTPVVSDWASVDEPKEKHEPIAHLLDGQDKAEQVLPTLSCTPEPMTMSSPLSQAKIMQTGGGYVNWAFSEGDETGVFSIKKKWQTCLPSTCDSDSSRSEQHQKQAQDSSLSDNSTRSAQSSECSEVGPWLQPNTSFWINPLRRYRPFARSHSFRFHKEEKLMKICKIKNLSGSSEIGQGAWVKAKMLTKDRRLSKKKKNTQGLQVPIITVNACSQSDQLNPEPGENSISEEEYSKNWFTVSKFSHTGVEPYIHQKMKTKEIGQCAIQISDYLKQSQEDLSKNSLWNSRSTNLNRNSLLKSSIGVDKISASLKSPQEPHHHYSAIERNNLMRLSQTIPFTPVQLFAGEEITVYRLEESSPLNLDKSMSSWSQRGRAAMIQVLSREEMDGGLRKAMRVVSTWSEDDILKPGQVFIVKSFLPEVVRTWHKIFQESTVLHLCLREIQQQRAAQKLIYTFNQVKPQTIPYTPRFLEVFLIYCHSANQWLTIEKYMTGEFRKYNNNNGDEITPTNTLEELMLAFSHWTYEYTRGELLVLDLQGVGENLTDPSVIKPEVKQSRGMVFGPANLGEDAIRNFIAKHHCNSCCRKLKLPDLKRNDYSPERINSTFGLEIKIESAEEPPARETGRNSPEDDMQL
UniProt Q9HAZ1, sequence (whole entry, looked up): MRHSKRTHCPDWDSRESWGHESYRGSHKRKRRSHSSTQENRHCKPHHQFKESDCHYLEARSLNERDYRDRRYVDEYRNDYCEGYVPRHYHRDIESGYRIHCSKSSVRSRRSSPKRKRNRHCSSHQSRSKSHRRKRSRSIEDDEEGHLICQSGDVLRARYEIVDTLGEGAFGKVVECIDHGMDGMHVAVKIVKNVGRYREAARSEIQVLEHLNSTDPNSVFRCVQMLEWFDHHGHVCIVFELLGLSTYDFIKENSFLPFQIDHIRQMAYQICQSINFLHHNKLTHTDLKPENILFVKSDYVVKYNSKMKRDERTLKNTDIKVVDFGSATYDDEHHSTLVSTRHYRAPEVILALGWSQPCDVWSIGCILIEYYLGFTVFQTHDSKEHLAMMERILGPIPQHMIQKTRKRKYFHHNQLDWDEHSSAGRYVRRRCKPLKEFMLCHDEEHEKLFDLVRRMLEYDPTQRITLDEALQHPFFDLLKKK

Study 1 — method: phase 2a clinical trial; species: idiopathic pulmonary fibrosis patients
Structure (SMILES): CC(C)n1cnc(-c2ccc(F)cc2)c1-c1ncc(C(=O)Nc2ccc(N3CCN(C)CC3)cc2)[nH]1
For refers to: neoplasms (SOC); dose not given, grade 4, all drug arms: “patients with TEAEs” read 0%.
For refers to: back pain; dose not given, grade 2, all drug arms; relative to: patients: “patients with TEAEs” read 1%.
refers to: neutrophil count increased; dose not given, grade 1, all drug arms; relative to: patients — “patients with TEAEs”: 1%.
It gave 1% for “patients with TEAEs” (refers to: neutrophil count increased; 30 mg once daily, grade 1 maximum intensity; relative to: patients).
refers to: reproductive and breast disorders; 60 mg once daily, grade 5 maximum intensity — “patients with TEAEs”: 0%.
The “patients with TEAEs” was 0% (refers to: reproductive and breast disorders; 60 mg once daily, grade 3 maximum intensity).
refers to: gamma-glutamyltransferase increased; dose not given, grade 2, all drug arms; relative to: patients — “patients with TEAEs”: 1%.
For refers to: infections and infestations; 60 mg once daily, grade 3 maximum intensity; relative to: patients: “patients with TEAEs” read 3%.
For refers to: infections and infestations; 30 mg once daily, grade 3 maximum intensity; relative to: patients: “patients with TEAEs” read 1%.

Study 2 — organism: Sarcocystis neurona; effect on: parasite activity; concentration: concentration not given
`C[C@]12CCC(=O)C=C1CC[C@@H]1[C@@H]2C(=O)C[C@@]2(C)[C@H]1CC[C@]2(O)C(=O)CO`: activity class “inactive”.
For `O=C1c2c(O)ccc(O)c2C(=O)c2c(NCCNCCO)ccc(NCCNCCO)c21`, activity class read “inactive”.
`C[C@]12CCC(=O)C=C1CC[C@@H]1[C@@H]2CC[C@@]2(C)[C@H]1CC[C@]2(O)C(=O)CO`: activity class “inactive”.
For `CCN1CC(CCN2CCOCC2)C(c2ccccc2)(c2ccccc2)C1=O.Cl` (stereo not drawn), activity class read “inactive”.
`Cl.c1ccc2c(c1)CCCC2C1=NCCN1` (stereo not drawn) — result for activity class: “inactive”.
Under activity class, `CC[C@@H]1C(=O)OC[C@@H]1Cc1cncn1C.Cl` is recorded as “inactive”.
`COc1ccnc(C[S+]([O-])c2nc3ccc(OC(F)F)cc3[nH]2)c1OC` (stereo not drawn) — result for activity class: “inactive”.
Under activity class, `Br.O=C1CC2(CCCC2)CC(=O)N1CCNCC1COc2ccccc2O1` (stereo not drawn) is recorded as “inactive”.
For `CCC1=C[C@@H]2CN(C1)Cc1c([nH]c3ccccc13)[C@@](C(=O)OC)(c1cc3c(cc1OC)N(C)[C@H]1[C@@](O)(C(=O)OC)[C@H](OC(C)=O)[C@]4(CC)C=CCN5CC[C@]31[C@@H]54)C2.O=C(O)C(O)C(O)C(=O)O.O=C(O)C(O)C(O)C(=O)O`, activity class read “inactive”.

Study 3 — effect on: cell-free assay; method: competition with immobilised ligand; concentration: 0.1 µM
SMILES: COCCOc1nc(-c2ccc(Cl)nc2)nc2c1CN(C(=O)c1ncn3ccccc13)CC2
It gave 100% for remaining binding (TRAF2 and NCK-interacting protein kinase (TNIK, Homo sapiens, UniProt Q9UKE5)).
For Activin receptor type-2A (ACVR2A, Homo sapiens, UniProt P27037): remaining binding read 98%.
Dual specificity protein kinase CLK4 (CLK4, Homo sapiens, UniProt Q9HAZ1) — remaining binding: 100%.
It gave 100% for remaining binding (Serine/threonine-protein kinase 10 (STK10, Homo sapiens, UniProt O94804)).
For cGMP-dependent protein kinase 2 (PRKG2, Homo sapiens, UniProt Q13237): remaining binding read 100%.
The remaining binding was 100% (Transient receptor potential cation channel subfamily M member 6 (TRPM6, Homo sapiens, UniProt Q9BX84)).
For Serine/threonine-protein kinase Chk2 (CHEK2, Homo sapiens, UniProt O96017): remaining binding read 100%.
For LIM domain kinase 2 (LIMK2, Homo sapiens, UniProt P53671): remaining binding read 100%.
MAP/microtubule affinity-regulating kinase 4 (MARK4, Homo sapiens, UniProt Q96L34) — remaining binding: 100%.
For Receptor-interacting serine/threonine-protein kinase 2 (RIPK2, Homo sapiens, UniProt O43353): remaining binding read 100%.
The remaining binding was 100% (Cyclin-dependent kinase 11B (CDK11B, Homo sapiens, UniProt P21127)).
The remaining binding was 100% (Ribosomal protein S6 kinase alpha-6, N-terminal kinase domain (RPS6KA6, Homo sapiens, UniProt Q9UK32)).
Cyclin-dependent kinase 4, with cyclin D1 (CDK4, Homo sapiens, UniProt P11802) — remaining binding: 96%.
It gave 100% for remaining binding (Tyrosine-protein kinase Lck (LCK, Homo sapiens, UniProt P06239)).
It gave 100% for remaining binding (Cyclin-dependent kinase 4 (CDK4, Homo sapiens, UniProt P11802)).
Protein-tyrosine kinase 6 (PTK6, Homo sapiens, UniProt Q13882) — remaining binding: 100%.
For Dual specificity protein kinase CLK1 (CLK1, Homo sapiens, UniProt P49759): remaining binding read 100%.

Mixed results
`O=C(COc1ccc(Cl)cc1)NC1CCC(NC(=O)COc2ccc(Cl)cc2)CC1` (stereo not drawn) has an enzyme activity of 101% and 115% and 122% and 119% (alpha-galactosidase (human); healthy dermal fibroblasts; concentration not given; relative to: DMSO).
`O=C1c2ccccc2-c2n[nH]c3cccc1c23` — result for “activity vs control”: 25.2% (Casein kinase I isoform epsilon (CSNK1E, Homo sapiens, UniProt P49674); enzyme activity, inhibitor; 0.5 µM).
With `Ic1ccc(Nc2nc(NCCN3CCOCC3)nc(N3CCOCC3)n2)cc1` the enzyme activity was 110% and 141% and 139% and 117% and 111% and 113% (L444P/L444P Gaucher fibroblasts; 4-MUG hydrolysis in lysate; 0.5 µM, 72 h; relative to: vehicle).
For `Cc1ccc(NC(=O)c2ccnc(C(F)(F)F)c2)cc1-c1cc(OCCO)nc(N2CCOCC2)c1`, the remaining signal was 71% (cAMP-dependent protein kinase catalytic subunit alpha (PRKACA, Homo sapiens, UniProt P17612); cell-free assay; 1 µM).
For `c1ccc2c(-c3nn4c(-c5ccncc5)nnc4s3)c[nH]c2c1`, the enzyme activity was 165% and 185% and 169% and 178% and 151% and 233% and 180% (L444P/L444P Gaucher fibroblasts; 4-MUG hydrolysis in lysate; 0.5 µM, 72 h; relative to: vehicle).
`C[C@@H]1CN(c2ccc(-c3cc(C(=O)NCCOCCOCCOCCOCCNC(=O)/C=C/c4[nH]cc(C(=O)N[C@@H](CC(N)=O)c5ccc(F)c(Cl)c5)c4-c4ccc(Cl)cc4F)ccc3F)cc2NC(=O)c2c[nH]c(=O)cc2C(F)(F)F)C[C@H](C)N1C`: “dissociation rate constant” 0.0012 s⁻¹ (WD repeat-containing protein 5 (WDR5, Homo sapiens, UniProt P61964); SPR).
`Cc1cccc(/C=N/Nc2cc(N3CCOCC3)nc(OCCc3ccccn3)n2)c1` has an enzyme activity of 121% and 110% and 96.9% and 116% and 115% and 117% (L444P/L444P Gaucher fibroblasts; 4-MUG hydrolysis in lysate; 5 nM, 72 h; relative to: vehicle).

Repeated from above (study 2):
`Cl.c1ccc2c(c1)CCCC2C1=NCCN1` (stereo not drawn) — result for activity class: “inactive”.
Under activity class, `CC[C@@H]1C(=O)OC[C@@H]1Cc1cncn1C.Cl` is recorded as “inactive”.
`COc1ccnc(C[S+]([O-])c2nc3ccc(OC(F)F)cc3[nH]2)c1OC` (stereo not drawn) — result for activity class: “inactive”.
Under activity class, `Br.O=C1CC2(CCCC2)CC(=O)N1CCNCC1COc2ccccc2O1` (stereo not drawn) is recorded as “inactive”.
